Measured values gathered from unrelated publications.
Parts stem from different laboratories: compare values within a part only. Positions count from the first letter of the parent shown.

Study 1
Target: RNA binding protein fox-1 homolog 2, RRM domain, GST-SBP tag (RBFOX2, Homo sapiens, UniProt O43251-10, residues 100-194)
Method: RNA Bind-n-Seq
Molecule type: RNA
Matrix: in vitro
Concentration: 365 nM
Setting: natural RNA segment, single round, ends assumed
Relative to: no-protein control
Reading: higher = stronger binding
Shared flanks, not repeated: GGGAGUUCUACAGUCCGACGAUC … UGGAAUUCUCGGGUGCCAA
Construct (chain): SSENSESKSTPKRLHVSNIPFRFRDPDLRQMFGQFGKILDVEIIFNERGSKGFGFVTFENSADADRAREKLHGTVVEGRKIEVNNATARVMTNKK
Sequence | RBNS enrichment (R)
AAGCCUGGUCUCAUUUGCUUCCCUGCCAGGCUCAUCGUGUGUAUACCACAUUUGUGCCCCACUGACCUGAAGGUUCCAUGUAACUGUAUACACAUGAAUACUUAAAUGCC | 0.362
CCCAGAAGCCUGGGCUUAGGGUGGAGAUGCCGCCUACACACGAUCCUGGCCCUCCACCUGCCUCCAGGCCACGAAAUGGGAAUUCCAGCACUAAGCCAGGCACCGGGCAG | 0.301
AUCUAGGACCCUAGUCUUUGUACUUGAUGCCUUGUUUCCCCCCUUUUCUUCUUUAAAAUUGGGGACCUAUAACAUCAUCGCUGUUGCGGAAUCCACUUAGGCAUGUGUCC | 0.349
GUACAUUCACUAAAUUUAUCAAAUAAAUUUAAAACUAGAUUGUUCCUAAGUCCAAUUGUUGAAAUUGGAUCAAAGUAGAAUUGUCAGAGGAACACAACAUUAAGCCAUUA | 0.367
CUUCUAGGGUAAAAACAGCUAUUACUAAUCUCUGCACUGGUCAUUUGAGAAUUUUUUUUGUACAGCAUUCAUGUGUGAUAUUUUCCAGAUUUGUUGGAUCUAUUUGGUUU | 0.798
GGUUUCCUGUUGUGACAGUAAUAAUGGUUAUAAUAAUAAAAAUGAUAAAAUUGCCAUCAUUCUAUUUUUAUCCAAAAGUAUAAAUUUUGCUUUGGCAUGAAAAGUGGUCC | 0.824
ACAGUUAUUUUAAAACAGUCCACAAGAGGGGUGUCUAGUUUUCAGAGACACUUCAGAAACUUUGCUCAGAAAACAGAUGCUACAGUUUGUGCAGGCAUGCGGUAGGAAAG | 1.84
GUUAGAAUCGAAGUUUUUCAAAUCCAUUGCUUAGCUAACUUUUUCAUUCUGUCACUUGGCUUCGAUUUUUAUAUUUUCCUAUUAUAUGAAAUGUAUCUUUUGGUUGUUUG | 0.579

Study 2
Target: ABI1, truncated, D143A, DHFR fusion (Arabidopsis thaliana)
Method: DHFR PCA, deep sequencing
Matrix: yeast
Setting: methotrexate growth selection, single substitutions
Together with: (+)-ABA 2500 µM
Relative to: wild-type fitted maximum
Reading: higher = stronger binding
Starting sequence: PYL1, truncated, DHFR fusion (Arabidopsis thaliana); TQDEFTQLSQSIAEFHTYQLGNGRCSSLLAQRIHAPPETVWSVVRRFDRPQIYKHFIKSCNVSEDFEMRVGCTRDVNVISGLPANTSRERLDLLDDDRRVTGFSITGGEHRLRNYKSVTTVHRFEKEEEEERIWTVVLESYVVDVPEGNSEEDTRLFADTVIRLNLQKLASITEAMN
Change | relative binding score [%]
R98E | 97.7
R99M | 106
L91N | 57.8
L166V | 54.2
R123S | 104
I33P | -16.5
Y53R | 85.3
C60A | 91.4

Study 3
Target: CCNB3, cyclin fold, Cln2 fusion (human)
Method: yeast growth competition, sequencing
Matrix: yeast
Setting: strong parent motif
Relative to: not given
Reading: higher = stronger binding
Starting sequence: viral docking peptide; KGVKRKLFAEDSS
Change | normalised enrichment score
KGVKRILFAEDSS [K6I] | 2.81
KGVKNKLFAEDSS [R5N] | -0.0319
KGVPRKLFAEDSS [K4P] | 0.735
KGVKRKLFLEDSS [A9L] | 2.46
KGVKRKLFAEASS [D11A] | 2.03
KGVKRKLFAEDHS [S12H] | 2.61
KGVKRKSFAEDSS [L7S] | 0.2
KGVKRKLFAENSS [D11N] | 2.11
KGVKMKLFAEDSS [R5M] | 0.413
AGVKRKLFAEDSS [K1A] | 2.15
KGFKRKLFAEDSS [V3F] | 1.01
KGCKRKLFAEDSS [V3C] | 1.64
KGVKRKLFCEDSS [A9C] | 3.27
KAVKRKLFAEDSS [G2A] | 2.11
KGVKRKLFVEDSS [A9V] | 3.51
KGVKRKLFAERSS [D11R] | 1.33
KDVKRKLFAEDSS [G2D] | 3.23
KGVKRKLFAEPSS [D11P] | 2.39

Other studies, line by line
P1: PafA, mature enzyme, eGFP fusion (Elizabethkingia meningoseptica, UniProt Q9KJX5); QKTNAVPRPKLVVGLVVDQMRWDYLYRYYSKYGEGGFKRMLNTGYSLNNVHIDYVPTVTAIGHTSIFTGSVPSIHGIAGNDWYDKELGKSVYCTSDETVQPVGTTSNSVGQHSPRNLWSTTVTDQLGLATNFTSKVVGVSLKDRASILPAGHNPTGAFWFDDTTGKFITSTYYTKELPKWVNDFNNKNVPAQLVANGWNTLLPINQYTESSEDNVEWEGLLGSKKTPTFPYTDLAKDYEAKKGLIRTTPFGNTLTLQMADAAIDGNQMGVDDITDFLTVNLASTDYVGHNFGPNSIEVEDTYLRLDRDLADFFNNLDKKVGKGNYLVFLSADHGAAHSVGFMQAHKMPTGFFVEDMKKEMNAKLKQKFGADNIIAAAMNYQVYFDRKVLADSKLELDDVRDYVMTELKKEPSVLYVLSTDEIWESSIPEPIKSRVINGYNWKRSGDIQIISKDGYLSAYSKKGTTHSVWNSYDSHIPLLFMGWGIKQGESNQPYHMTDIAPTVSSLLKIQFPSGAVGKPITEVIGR
Substance | tested on | test | system | conditions | scale | endpoint | result
P1 G525V | vanadate, free oxyanion | microfluidic competitive inhibition | in vitro, cell-free expressed | not given, derived from inhibition constants, unchanged parent 676 nM | lower = stronger binding | oxyanion analog dissociation constant | 687 nM
ECI1 (Homo sapiens, UniProt P42126) | CCDC90B (Homo sapiens, UniProt Q9GZT6) | cross-linking MS | cells | together with: BSPNO |  | cross-linked residues | K260 to K124

For quick reference, copied from above (other studies, line by line):
Substance | tested on | test | system | conditions | scale | endpoint | result
ECI1 (Homo sapiens, UniProt P42126) | CCDC90B (Homo sapiens, UniProt Q9GZT6) | cross-linking MS | cells | together with: BSPNO |  | cross-linked residues | K260 to K124
P1 G525V | vanadate, free oxyanion | microfluidic competitive inhibition | in vitro, cell-free expressed | not given, derived from inhibition constants, unchanged parent 676 nM | lower = stronger binding | oxyanion analog dissociation constant | 687 nM
